{"data": "Results from different studies", "note": "“And” joins repeats or separate records; there may be more than shown. ± marks the error that the study gave."}
{"Compound": "CCCCCCCOc1ccc(CC[C@](N)(CO)COP(=O)(O)O)cc1C(F)(F)F", "system": "healthy human males, plasma", "conditions": "oral, 0.75 mg, day 21", "quantity": "half-life", "value": "385 h"}
{"Compound": "Cc1cc(C)n(CCN(CCN)CCCCCCNC(=O)[C@@H](N)Cc2c[nH]cn2)n1.[99Tc+].[C-]#[O+].[C-]#[O+].[C-]#[O+]", "system": "BALB/c nude mice A549 xenograft", "conditions": "intravenous, 15 min", "scale": "reference: tumour over lung", "quantity": "tumour-to-tissue ratio", "value": 1.5}
{"Compound": "CC(=O)N([O-])CCCCCNC(=O)CCC(=O)N([O-])CCCCCNC(=O)CCC(=O)N([O-])CCCCCN.[89Zr+4]", "test": "radio-TLC", "system": "aqueous buffer", "conditions": "7 d, pH 7.2, 37 °C, 89Zr-labelled complex, added: MgCl2 10-fold excess", "quantity": "intact complex", "value": "98.7 ± 1.1%"}
{"Compound": "N=C(N)NCCC[C@@H]1NC(=O)[C@H](CO)NC(=O)[C@@H](NC(=O)[C@H](CO)NC(=O)[C@H](CO)NC(=O)[C@H](Cc2c[nH]c3ccccc23)NC(=O)CNC(=O)[C@H](CO)NC(=O)[C@@H](N)Cc2c[nH]c3ccccc23)CSSC[C@@H](C(=O)NCC(=O)O)NC(=O)[C@H](CO)NC1=O", "system": "patients, plasma", "conditions": "intravenous, 10 mg/kg, thrice weekly, mean", "quantity": "total clearance", "value": "1050 L/h"}
{"Compound": "CC[C@H](C)[C@@H]1NC(=O)[C@H](Cc2ccc(O)cc2)NC(=O)CCCSC[C@@H](C(=O)N(CC(=O)N[C@@H](CC(C)C)C(=O)NCC(N)=O)Cc2ccc(F)cc2)NC(=O)[C@H](CC(N)=O)NC(=O)[C@H](CCC(N)=O)NC1=O", "system": "healthy human, plasma", "conditions": "intranasal, 50 µg every 3 h, after first dose", "quantity": "Cmax", "value": "0.034 ng/mL"}
{"Compound": "CS(=O)(=O)c1cc(Cl)cc(-c2cc(Cl)c(Cl)cc2Cl)c1Cl", "system": "cow whole milk", "conditions": "100 nM", "scale": "reference: milk fat over skim milk", "quantity": "milk fat partition ratio", "value": 241}
{"Compound": "O=C(Nc1ccc(-c2nnc(-c3ccccn3)nn2)nc1)c1ccc(-c2cn(CCOCCOCCOCC[18F])nn2)cc1", "test": "PET imaging", "system": "BALB/c nude mouse, LS174T xenograft, tumour, heart as blood", "conditions": "intravenous, 1 h, added: CC49-TCO 72 h before", "scale": "reference: tumour over heart", "quantity": "tumour to blood ratio", "value": 0.77}
{"Compound": "Cc1nn(-c2nc3c(F)cc(F)cc3s2)c(O)c1C(c1ccc(C(F)(F)F)cc1)c1c(C)nn(-c2nc3c(F)cc(F)cc3s2)c1O", "system": "ICR mouse, plasma", "conditions": "oral, 50 mg/kg", "quantity": "AUMC(0-inf) observed", "value": "1.46e+06 h²·ng/mL and 3.09e+06 h²·ng/mL and 1.61e+06 h²·ng/mL"}
{"Compound": "CC(C)OCCOCc1ccc(OCC(O)CN(N=O)C(C)C)cc1 (stereo not shown)", "test": "duplex sequencing, item: mutation frequency", "system": "NMRI mouse, bone marrow", "conditions": "oral, 29.85 mg/kg/day, 4 weeks", "scale": "reference: vehicle", "quantity": "fold change", "value": 1.33}
{"Compound": "COc1cccc(OC)c1-c1cc(C(=O)NC2(C(=O)O)C3CC4CC(C3)CC2C4)nn1-c1ccc(C(=O)N(C)CCCN(C)C(=O)[C@H](CCCCNC(=O)[C@H](CC(C)C)NC(=O)C2OC2C(=O)O)NC(=O)CN2CCN(CC(=O)[O-])CCN(CC(=O)[O-])CCN(CC(=O)[O-])CC2)cc1C(C)C.[177Lu+3] (mixture of isomers)", "system": "mouse, HT-29 xenograft, kidney", "conditions": "24 h post injection", "quantity": "tissue uptake", "value": "5.9 %ID/g"}
{"Compound": "CC(=O)N[C@H](CC(=O)O)C(=O)N[C@H](Cc1c[nH]c2ccccc12)C(=O)N[C@H](Cc1ccccc1)C(=O)N[C@H](CCCCN)C(=O)N[C@H](C)C(=O)N[C@H](Cc1ccccc1)C(=O)N[C@H](Cc1ccc(O)cc1)C(=O)N[C@H](CC(=O)O)C(=O)N[C@H](CCCCN)C(=O)N[C@@H](C(=O)N[C@H](C)C(=O)N[C@H](CCC(=O)O)C(=O)N[C@H](CCCCN)C(=O)N[C@H](Cc1ccccc1)C(=O)N[C@H](CCCCN)C(=O)N[C@H](CCC(=O)O)C(=O)N[C@H](C)C(=O)N[C@H](Cc1ccccc1)C(N)=O)C(C)C", "system": "human, plasma", "conditions": "oral, 500 mg daily, 0.5 h post-dose, day 13", "quantity": "plasma concentration", "value": "589 ng/mL"}
{"Compound": "C=C(NC(=O)c1csc(-c2nc3c(cc2O)-c2nc(cs2)C(=O)NC(C(C)O)C(=O)NC(=C(C)OC)c2nc(cs2)C(=O)NC2c4nc(cs4)C(=O)NC(COC(=O)c4c5c6c(cccc6n4O)COC(=O)C(OC4CC(C)(O)C(N(C)C)C(C)O4)C2OC5)c2nc-3cs2)n1)C(N)=O (stereo not shown)", "system": "ICR mice, Streptococcus pneumoniae ATCC 49169 infected, immunocompromised, blood", "conditions": "intravenous, 32 mg/kg/day once daily", "quantity": "Tmax", "value": "4.8 min"}
{"Compound": "CCCC[C@H]1C(=O)N(C)[C@@H](CCCC)C(=O)N[C@@H](CCCCNC(=S)Nc2ccc(CN3CCN(CC(=O)O)CCN(CC(=O)O)CC3)cc2)C(=O)N[C@H](C(=O)NCC(N)=O)CSCC(=O)N[C@@H](Cc2ccc(O)cc2)C(=O)N(C)[C@@H](C)C(=O)N[C@@H](CC(N)=O)C(=O)N2CCC[C@H]2C(=O)N[C@@H](Cc2cnc[nH]2)C(=O)N[C@@H](CCC(=O)O)C(=O)N2C[C@H](O)C[C@H]2C(=O)N[C@@H](Cc2c[nH]c3ccccc23)C(=O)N[C@@H](CO)C(=O)N[C@@H](Cc2cn(CC(=O)O)c3ccccc23)C(=O)N1C [fluorine-18 labelled]", "system": "H226 subcutaneous xenograft, NSG mouse, tumour", "conditions": "intravenous, 60 min", "quantity": "tumour uptake", "value": "5.12 ± 2.57 %ID/g"}
{"Compound": "CN1CCC[C@]1(C)/C=C/S(=O)(=O)NC(=O)Nc1c2c(cc3c1CC(O)C3)CCC2 (stereo partly shown)", "system": "human, plasma", "conditions": "oral, 100 mg twice daily of parent drug, day 14, metabolite of dosed drug", "quantity": "Tmax at second steady-state dose", "value": "3.02 h"}
{"Compound": "C=CC(=O)Nc1cc(Nc2nccc(-c3c[nH]c4ccccc34)n2)c(OC)cc1N(C)CCN(C)C", "test": "storage stability", "system": "human plasma", "conditions": "10 d, on ice, LLOQ level", "quantity": "recovery", "value": "54%"}
{"Compound": "CC(C)C[C@H](NC(=O)[C@@H](CCCCNC(=O)[C@@H](Cc1ccccc1)NC(=O)CCCCCCCNC(=O)CN1CCN(CC(=O)O)CCN(CC(=O)O)CCN(CC(=O)O)CC1)NC(=O)[C@H](Cc1ccc(O)cc1)NC(=O)[C@H](CO)NC(=O)[C@H](Cc1c[nH]c2ccccc12)NC(=O)[C@H](Cc1c[nH]cn1)NC(=O)[C@@H]1CCC(=O)N1)C(=O)N[C@@H](CCCNC(=N)N)C(=O)N1CCC[C@H]1C(=O)NCC(N)=O [indium-111 labelled]", "system": "male athymic nude mice, DU-145 prostate cancer xenograft, tumour", "conditions": "intravenous, 0.037 MBq, 2 h", "scale": "reference: tumour over muscle", "quantity": "tumour-to-tissue ratio", "value": 4.82}
{"Compound": "CC(=O)N1CCC=C(c2cc3c(Nc4cc5ncsc5cc4F)ncnc3s2)C1", "system": "BALB/c mouse", "quantity": "oral bioavailability", "value": "19.4%"}
{"Compound": "NS(=O)(=O)c1c(F)c(F)c(Sc2nc3ccccc3s2)c(F)c1F", "conditions": "sulfonamide group", "quantity": "pKa", "value": 7.83}
{"Compound": "C=Cc1c(C)c2cc3nc(c(CC(=O)OCCOCCOCCOC)c4[nH]c(cc5nc(cc1[nH]2)C(C)=C5CC)c(C)c4C(=O)O)[C@@H](CCC(=O)OCCOCCOCCOC)[C@@H]3C", "test": "LC-MS", "system": "methanol-water 9:1", "conditions": "4 h, pH 8.0", "quantity": "compound loss", "value": "29%"}
{"Compound": "CCC1CNC(CC)CN(C(C(=O)[O-])c2ccc(C(=O)[O-])cc2)C(CC)CN(CC(=O)[O-])C(CC)CN1.[Mn+2] (stereo not shown)", "test": "ICP-MS", "system": "BALB/c mouse, intestine", "conditions": "intravenous, 0.05 mmol/kg, 30 min, without anaesthesia", "quantity": "Mn content", "value": "13.9 ± 11.2 µg/g"}
{"Compound": "C=CC(=O)N1CCCC(n2c(=O)c3ncccc3n(Cc3ccc(Oc4ccccc4)cc3)c2=O)C1 (stereo not shown)", "system": "male BALB/c mouse, plasma", "conditions": "intraperitoneal, 200 mg/kg, 30 min", "quantity": "concentration", "value": "87400 ng/mL"}
{"Compound": "CCCC[C@H](NC(=O)CNC(=O)CNC(=O)[C@H](CCCCNC(=O)[C@H](CC(N)=O)NC(=O)C(C)c1ccc(CC(C)C)cc1)NC(=O)CN1CCN(CC(=O)O)CCN(CC(=O)O)CCN(CC(=O)O)CC1)C(=O)N[C@H]1CC(=O)NCCCC[C@@H](C(N)=O)NC(=O)[C@H](Cc2c[nH]c3ccccc23)NC(=O)[C@H](CCCNC(=N)N)NC(=O)[C@@H](Cc2ccccc2)NC(=O)[C@H](Cc2c[nH]cn2)NC1=O (stereo partly shown) [lutetium-177 labelled]", "system": "C57 mice, tumour", "conditions": "2 h", "scale": "reference: liver", "quantity": "tumour-to-tissue ratio", "value": 2.35}
{"Compound": "COCC1CN(C2CCN(c3cc(OC)c(Nc4ncc(Br)c(Nc5ccc6c(c5P(C)(C)=O)OCCO6)n4)cc3C)CC2)C1", "test": "first-in-human trial", "system": "human", "conditions": "oral, 90 mg once daily", "scale": "treatment-related", "quantity": "serious adverse events", "value": "0%"}
{"Compound": "O=C(Nc1cnccc1-c1ccc([18F])cc1)c1ccnc(NC(=O)C2CC2)c1", "system": "mice, transgenic, GSK-3β, early-stage, large intestine", "conditions": "intravenous, dose not given, 120 min, added: tariquidar 15 mg/kg i.v. pre-dose", "quantity": "SUV", "value": 0.37}
{"Compound": "[123I]c1ccc2nc(-c3ccc(-n4ccnn4)nc3)cn2c1", "system": "male Wistar rat, heart", "conditions": "intravenous, 4 MBq, 5 min", "quantity": "tracer uptake", "value": "0.685 %ID/g"}
{"Compound": "C=CC(=O)Nc1cc(Nc2nccc(-c3cn(C)c4ccccc34)n2)c(OC)cc1N(C)CCNC", "test": "storage stability", "system": "human dried blood spot", "conditions": "30 d, -80 °C, LQC level", "quantity": "recovery", "value": "99.3%"}
{"Compound": "O=C(CN1CCN(CC(=O)NCc2ncccc2O)CCN(CC(=O)NCc2ncccc2O)CCN(CC(=O)NCc2ncccc2O)CC1)NCc1ncccc1O.[177Lu+3]", "system": "Sprague-Dawley rat, stomach", "conditions": "intravenous (tail vein), dose not given, 2 h", "quantity": "tissue uptake", "value": "0.032 ± 0.002 % injected dose/g"}
{"Compound": "CC(C(=O)O)n1nc(Cn2cc3cc(OCC[18F])c(Cl)cc3n2)c2ccccc2c1=O (racemic)", "system": "Sprague-Dawley rat male, fat", "conditions": "30 min", "quantity": "tissue uptake", "value": "0.05 ± 0.02 %ID/g"}
{"note": "Excerpt of the above:"}
{"Compound": "CCCC[C@H]1C(=O)N(C)[C@@H](CCCC)C(=O)N[C@@H](CCCCNC(=S)Nc2ccc(CN3CCN(CC(=O)O)CCN(CC(=O)O)CC3)cc2)C(=O)N[C@H](C(=O)NCC(N)=O)CSCC(=O)N[C@@H](Cc2ccc(O)cc2)C(=O)N(C)[C@@H](C)C(=O)N[C@@H](CC(N)=O)C(=O)N2CCC[C@H]2C(=O)N[C@@H](Cc2cnc[nH]2)C(=O)N[C@@H](CCC(=O)O)C(=O)N2C[C@H](O)C[C@H]2C(=O)N[C@@H](Cc2c[nH]c3ccccc23)C(=O)N[C@@H](CO)C(=O)N[C@@H](Cc2cn(CC(=O)O)c3ccccc23)C(=O)N1C [fluorine-18 labelled]", "system": "H226 subcutaneous xenograft, NSG mouse, tumour", "conditions": "intravenous, 60 min", "quantity": "tumour uptake", "value": "5.12 ± 2.57 %ID/g"}
{"Compound": "CN1CCC[C@]1(C)/C=C/S(=O)(=O)NC(=O)Nc1c2c(cc3c1CC(O)C3)CCC2 (stereo partly shown)", "system": "human, plasma", "conditions": "oral, 100 mg twice daily of parent drug, day 14, metabolite of dosed drug", "quantity": "Tmax at second steady-state dose", "value": "3.02 h"}
{"Compound": "C=CC(=O)Nc1cc(Nc2nccc(-c3c[nH]c4ccccc34)n2)c(OC)cc1N(C)CCN(C)C", "test": "storage stability", "system": "human plasma", "conditions": "10 d, on ice, LLOQ level", "quantity": "recovery", "value": "54%"}
{"Compound": "CC(C)C[C@H](NC(=O)[C@@H](CCCCNC(=O)[C@@H](Cc1ccccc1)NC(=O)CCCCCCCNC(=O)CN1CCN(CC(=O)O)CCN(CC(=O)O)CCN(CC(=O)O)CC1)NC(=O)[C@H](Cc1ccc(O)cc1)NC(=O)[C@H](CO)NC(=O)[C@H](Cc1c[nH]c2ccccc12)NC(=O)[C@H](Cc1c[nH]cn1)NC(=O)[C@@H]1CCC(=O)N1)C(=O)N[C@@H](CCCNC(=N)N)C(=O)N1CCC[C@H]1C(=O)NCC(N)=O [indium-111 labelled]", "system": "male athymic nude mice, DU-145 prostate cancer xenograft, tumour", "conditions": "intravenous, 0.037 MBq, 2 h", "scale": "reference: tumour over muscle", "quantity": "tumour-to-tissue ratio", "value": 4.82}
